{"data": "Published values of several laboratories", "technique": "steady-state kinetics", "B1": "Ma-WS/DGAT A144F (Marinobacter nauticus); chain MTPLNPTDQLFLWLEKRQQPMHVGGLQLFSFPEGAPDDYVAQLADQLRQKTEVTAPFNQRLSYRLGQPVWVEDEHLDLEHHFRFEALPTPGRIRELLSFVSAEHSHLMDRERPMWEVHLIEGLKDRQFALYTKVHHSLVDGVSFMRMATRMLSENPDEHGMPPIWDLPCLSRDRGESDGHSLWRSVTHLLGLSGRQLGTIPTVAKELLKTINQARKDPAYDSIFHAPRCMLNQKITGSRRFAAQSWCLKRIRAVCEAYGTTVNDVVTAMCAAALRTYLMNQDALPEKPLVAFVPVSLRRDDSSGGNQVGVILASLHTDVQEAGERLLKIHHGMEEAKQRYRHMSPEEIVNYTALTLAPAAFHLLTGLAPKWQTFNVVISNVPGPSRPLYWNGAKLEGMYPVSIDMDRLALNMTLTSYNDQVEFGLIGCRRTLPSLQRMLDYLEQGLAELELNAGL", "B2": "ycjS (Escherichia coli, UniProt P77503); chain MKSAMTSSPLRVAIIGAGQVADKVHASYYCTRNDLELVAVCDSRLSQAQALAEKYGNASVWDDPQAMLLAVKPDVVSVCSPNRFHYEHTLMALEAGCHVMCEKPPAMTPEQAREMCDTARKLGKVLAYDFHHRFALDTQQLREQVTNGVLGEIYVTTARALRRCGVPGWGVFTNKELQGGGPLIDIGIHMLDAAMYVLGFPAVKSVNAHSFQKIGTQKSCGQFGEWDPATYSVEDSLFGTIEFHNGGILWLETSFALNIREQSIMNVSFCGDKAGATLFPAHIYTDNNGELMTLMQREIADDNRHLRSMEAFINHVQGKPVMIADAEQGYIIQQLVAALYQSAETGTRVEL", "B3": "protein (Adiantum capillus-veneris, UniProt A0A4Y6I289); chain MTDAVENKQVEFGALEVEGIKFAPSVAALGSTKQLVLGGAGFRGLEISGNLVKFTAIGIYVDEAIIPHLSPKLHGKSIEELCNNELLFEEVLAAPFEKLVRVVFLLPLTGPQYSEKVVERMGLLPNPGIKEESTKQFLEIFKPENFPPRTSLICSFTEEALKVAFMKTDDFPEDADAVIEDKWLARAFLASIIGKDGVSPLAKLSFAERMSRCL", "B4": "enzyme (Thermobifida fusca, UniProt Q47RK4); chain MTDVYILDAVRTPFGRYGGALSGIRPDDLAAHVLRALAERSPGLDPAAVDDVFFGDANGAGEDNRNVARMAALLAGWPTSVPGVTLNRLCGSGMESVIAANRAIAVGDASLAVAGGVESMSRAPWVLPKPAQGFPTGHETLYSTTLGWRMVNPAMPEQWTVSLGESTEQVAATYGISRAEQDAFALRSHERAARAWAEGVFDAEITQIPGAELERDESIRETSAEKLAALKPAFRPDGTITAGNASPLNDGAAALLIGDAAAAERVGREPLARIVSRGVAAVDPDVFGIGPVQAAEIALRRAGIGWDDLSVVELNEAFAAQSLACLKLWPDLDPEIVNPNGGAIAIGHPLGASGARIVGTLAHELHRRGGGWGLAAICIGVGQGLAVVLHR", "B5": "Pck1 A467G (Rattus norvegicus, UniProt P07379); chain MPPQLHNGLDFSAKVIQGSLDSLPQEVRKFVEGNAQLCQPEYIHICDGSEEEYGRLLAHMQEEGVIRKLKKYDNCWLALTDPRDVARIESKTVIITQEQRDTVPIPKSGQSQLGRWMSEEDFEKAFNARFPGCMKGRTMYVIPFSMGPLGSPLAKIGIELTDSPYVVASMRIMTRMGTSVLEALGDGEFIKCLHSVGCPLPLKKPLVNNWACNPELTLIAHLPDRREIISFGSGYGGNSLLGKKCFALRIASRLAKEEGWLAEHMLILGITNPEGKKKYLAAAFPSACGKTNLAMMNPTLPGWKVECVGDDIAWMKFDAQGNLRAINPENGFFGVAPGTSVKTNPNAIKTIQKNTIFTNVAETSDGGVYWEGIDEPLAPGVTITSWKNKEWRPQDEEPCAHPNSRFCTPASQCPIIDPAWESPEGVPIEGIIFGGRRPAGVPLVYEALSWQHGVFVGAAMRSEATAGAEHKGKVIMHDPFAMRPFFGYNFGKYLAHWLSMAHRPAAKLPKIFHVNWFRKDKNGKFLWPGFGENSRVLEWMFGRIEGEDSAKLTPIGYVPKEDALNLKGLGDVNVEELFGISKEFWEKEVEEIDKYLEDQVNADLPYEIERELRALKQRISQM", "B6": "Paox H64Q (Mus musculus, UniProt Q8C0L6); chain MAFPGPRVLVVGSGIAGLGAAQKLCSHRAAPHLRVLEATASAGGRIRSERCFGGVVELGAHWIQGPSQDNPVFQLAAEFGLLGEKELSEENQLVDTGGHVALPSMIWSSSGTSVSLELMTEMARLFYGLIERTREFLNESETPMASVGEFLKKEISQQVASWTEDDEDTRKRKLAILNTFFNIECCVSGTHSMDLVALAPFGEYTVLPGLDCILAGGYQGLTDRILASLPKDTVAFDKPVKTIHWNGSFQEAAFPGETFPVLVECEDGARLPAHHVIVTVPLGFLKEHQDTFFEPPLPAKKAEAIKKLGFGTNNKIFLEFEEPFWEPDCQFIQVVWEDTSPLQDTALSLQDTWFKKLIGFLVQPSFESSHVLCGFIAGLESEFMETLSDEEVLLSLTQVLRRVTGNPQLPAAKSVRRSQWHSAPYTRGSYSYVAVGSTGDDLDLMAQPLPEDGTGTQLQVLFAGEATHRTFYSTTHGALLSGWREADRLVSLWDSQVEQSRPRL", "B7": "protein (Planktothrix agardhii, UniProt F5B6Z0); chain MIVNVIQKDRLKEQKLQFIRNHQQAFDVEPIYPLPLFEDFVTSIEGDCSLEASCKIESDKLIASRFLLFFEDKTQEWQKYLHQSLTFFGLVENRVGVKINYSLLQQFLGSSFDFSKVTVLSAGIDLRNNLAESSLKMHIRIKDYPEKLDKAFALSDGAADGNYLKDFVNLIGFDFYFNGKSEIEIYAEVQEDDFFKPEINNLVWQHFPKTALQPLKASSLFFTGLSKANNNPVLYYHLKNRQDLTNYFKLNDTAQRVHSFYQHQDILPYMWVGTAQKELEKTRIENIRLYYYKSFKMESN", "B8": "MPO (Homo sapiens, UniProt P05164); chain 1 VTCPEQDKYRTITGMCNNRRSPTLGASNRAFVRWLPAEYEDGFSLPYGWTPGVKRNGFPVALARAVSNEIVRFPTDQLTPDQERSLMFMQWGQLLDHDLDFTPEPAARA; chain 2 VNCETSCVQQPPCFPLKIPPNDPRIKNQADCIPFFRSCPACPGSNITIRNQINALTSFVDASMVYGSEEPLARNLRNMSNQLGLLAVNQRFQDNGRALLPFDNLHDDPCLLTNRSARIPCFLAGDTRSSEMPELTSMHTLLLREHNRLATELKSLNPRWDGERLYQEARKIVGAMVQIITYRDYLPLVLGPTAMRKYLPTYRSYNDSVDPRIANVFTNAFRYGHTLIQPFMFRLDNRYQPMEPNPRVPLSRVFFASWRVVLEGGIDPILRGLMATPAKLNRQNQIAVDEIRERLFEQVMRIGLDLPALNMQRSRDHGLPGYNAWRRFCGLPQPETVGQLGTVLRNLKLARKLMEQYGTPNNIDIWMGGVSEPLKRKGRVGPLLACIIGTQFRKLRDGDRFWWENEGVFSMQQRQALAQISLPRIICDNTGITTVSKNNIFMSNSYPRDFVNCSTLPALNLASWREAS", "B9": "trypsin (Saccharopolyspora erythraea, UniProt Q54137); chain IVGGEDANVQDHPFTVALVTPDGQQFCGGTLAAPNKVVTAAHCTVGSQPADINVVSGRTVMSSNEGTVSKVTNVWVHPEYQDAAKGFDVSVLTLEAPVKEAPIELAKADDAGYAPDTAATILGWGNTSEGGQQADHLQKATVPVNSDDTCKQAYGEYTPDAMVCAGVPEGGVDTCQGDSGGPMVVNNKLIGVTSWGEGCARPGKPGVYARVGAYYDVLMEQINAGAVSAR", "B10": "TcA (Trypanosoma cruzi, UniProt Q4DRC4); chain MFIRLFAREEEGEKEGKICHMPREYEFAEKILFTEEEIRTRIKEVAKRIADDYKGKGLRPYVNPLVLISVLKGSFMFTADLCRALCDFNVPVRMEFICVSSYGEGLTSSGQVRMLLDTRHSIEGHHVLIVEDIVDTALTLNYLYHMYFTRRPASLKTVVLLDKREGRRVPFSADYVVANIPNAFVIGYGLDYDDTYRELRDIVVLRPEVYAEREAARQKKQRAIGSADTDRDAKREFHSKY", "note": "Compare with care: the assays were run in different laboratories. ± gives the spread as reported.", "chain of UniProt Q92903 (whole entry, looked up)": "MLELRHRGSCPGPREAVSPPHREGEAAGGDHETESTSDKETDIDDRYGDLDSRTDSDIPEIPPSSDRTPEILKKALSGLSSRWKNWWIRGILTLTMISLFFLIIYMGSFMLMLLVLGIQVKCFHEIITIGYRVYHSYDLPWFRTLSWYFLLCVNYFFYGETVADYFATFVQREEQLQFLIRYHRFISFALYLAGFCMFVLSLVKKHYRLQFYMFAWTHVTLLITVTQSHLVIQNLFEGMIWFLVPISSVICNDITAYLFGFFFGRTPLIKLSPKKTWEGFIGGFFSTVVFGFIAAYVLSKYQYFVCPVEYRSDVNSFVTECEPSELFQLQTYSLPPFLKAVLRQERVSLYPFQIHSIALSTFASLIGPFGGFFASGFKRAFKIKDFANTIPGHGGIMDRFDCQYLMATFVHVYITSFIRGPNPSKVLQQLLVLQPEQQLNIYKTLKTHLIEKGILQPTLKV"}
{"Molecule": "B1 (Ma-WS/DGAT A144F)", "substrate": "CCCCCC(=O)SCCNC(=O)CCNC(=O)[C@H](O)C(C)(C)COP(=O)(O)OP(=O)(O)OC[C@H]1O[C@@H](n2cnc3c(N)ncnc32)[C@H](O)[C@@H]1OP(=O)(O)O", "conditions": "pH 7.5, 25 °C, NaCl 300 mM, apparent, together with: 1-hexanol 4 mM", "kcat [s⁻¹]": "0.85 ± 0.03"}
{"Molecule": "B2 (ycjS)", "substrate": "CO[C@H]1O[C@H](CO)[C@@H](O)[C@H](O)[C@H]1O", "conditions": "pH 8, 30 °C, together with: NAD+ 2.0 mM", "kcat [s⁻¹]": "0.58 ± 0.01"}
{"Molecule": "B3 (protein)", "substrate": "O=C(/C=C/c1ccc(O)cc1)c1ccc(O)cc1O", "kcat [s⁻¹]": "0.404 ± 0.0347"}
{"Molecule": "B4 (enzyme)", "substrate": "CC(=O)SCCNC(=O)CCNC(=O)[C@H](O)C(C)(C)COP(=O)(O)OP(=O)(O)OC[C@H]1O[C@@H](n2cnc3c(N)ncnc32)[C@H](O)[C@@H]1OP(=O)(O)O", "conditions": "pH 7.4, 37 °C", "kcat [s⁻¹]": "0.0035 ± 6.5e-05"}
{"Molecule": "protein (Sinorhizobium meliloti, UniProt Q92WA3)", "substrate": "O=c1ccn([C@@H]2O[C@H](COP(=O)(O)OP(=O)(O)O[C@H]3OC[C@@H](O)[C@H](O)[C@H]3O)[C@@H](O)[C@H]2O)c(=O)[nH]1", "conditions": "pH 7.6, 37 °C, together with: NAD+ 1 mM", "kcat [s⁻¹]": "13 ± 1.9"}
{"Molecule": "B5 (Pck1 A467G)", "substrate": "C=C(OP(=O)(O)O)C(=O)O", "conditions": "pH 7.5, 25 °C", "kcat [s⁻¹]": "1 ± 0.1"}
{"Molecule": "CDS1 (Homo sapiens, UniProt Q92903)", "substrate": "CCCCC/C=C\\C/C=C\\CCCCCCCC(=O)O[C@H](COC(=O)CCCCCCCCCCCCCCCCC)COP(=O)(O)O", "conditions": "pH 8, not purified", "kcat [s⁻¹]": "3.2 ± 0.2"}
{"Molecule": "B6 (Paox H64Q)", "substrate": "c1ccc(CNCCCCNCc2ccccc2)cc1", "conditions": "pH 8.6, 30 °C", "kcat [s⁻¹]": "0.2 ± 0.01"}
{"Molecule": "B7 (protein)", "substrate": "CC(C)=CCOP(=O)(O)OP(=O)(O)O", "conditions": "together with: tri-Tyr peptide acceptor", "kcat [s⁻¹]": "0.122 ± 0.00233"}
{"Molecule": "B8 (MPO)", "substrate": "CC(=O)N1c2ccc(O)cc2Oc2cc(O)ccc21", "conditions": "25 °C, stopped-flow, integrated fit", "kcat [s⁻¹]": "224 ± 50"}
{"Molecule": "B9 (trypsin)", "substrate": "N=C(N)NCCC[C@H](NC(=O)c1ccccc1)C(=O)Nc1ccc([N+](=O)[O-])cc1", "conditions": "pH 8, 25 °C", "kcat [s⁻¹]": "3.15 ± 0.07"}
{"Molecule": "B10 (TcA)", "substrate": "Nc1nc2nc[nH]c2c(=O)[nH]1", "conditions": "pH 8.3, 37 °C, apparent, together with: PRPP 1 mM, MgCl2 12 mM", "kcat [s⁻¹]": "32 ± 1"}
{"note": "A few entries again:"}
{"Molecule": "B8 (MPO)", "substrate": "CC(=O)N1c2ccc(O)cc2Oc2cc(O)ccc21", "conditions": "25 °C, stopped-flow, integrated fit", "kcat [s⁻¹]": "224 ± 50"}
